Measurements collected from several papers.
Compare with care: the assays were run in different laboratories. Values joined by “and” are separate records of one study, mostly repeats; a detail may differ. ± marks the error that the study gave.
UniProt P45985, sequence (whole entry, looked up): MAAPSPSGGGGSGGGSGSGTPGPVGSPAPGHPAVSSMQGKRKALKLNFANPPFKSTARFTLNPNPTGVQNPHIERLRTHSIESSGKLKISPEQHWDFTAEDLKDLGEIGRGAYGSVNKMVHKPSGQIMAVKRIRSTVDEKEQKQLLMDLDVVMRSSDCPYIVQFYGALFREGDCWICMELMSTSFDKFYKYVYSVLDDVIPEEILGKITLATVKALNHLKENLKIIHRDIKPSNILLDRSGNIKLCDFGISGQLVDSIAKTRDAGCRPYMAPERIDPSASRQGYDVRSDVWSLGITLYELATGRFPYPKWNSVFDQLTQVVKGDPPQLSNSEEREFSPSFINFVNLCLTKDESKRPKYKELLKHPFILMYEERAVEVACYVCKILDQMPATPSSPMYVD

For `C[C@H]1O[C@@H](O[C@H]2[C@@H](O)C[C@H](O[C@H]3[C@@H](O)C[C@H](O[C@H]4CC[C@@]5(C)[C@H](CC[C@@H]6[C@@H]5C[C@@H](O)[C@]5(C)[C@@H](C7=CC(=O)OC7)CC[C@]65O)C4)O[C@@H]3C)O[C@@H]2C)C[C@H](O)[C@@H]1O`, “apparent membrane tension” read 0.5 nN/µm (ReNcell VM neural progenitor cells; atomic force microscopy; 0.56 µM).
For `COc1ccc([C@H]2c3[nH]c4ccc(Cl)cc4c3CCN2C(=O)Oc2ccc(Cl)cc2)cc1`, the inhibition was 29% (HUVEC and PBMC co-culture; BioMAP SAg, measured: IL-8; 0.1 µM, 24 h, with: TCR ligands).
`CC(C)N1CCC(NC2CCN(c3cccc(-c4cc5cc(F)ccc5[nH]4)c3)CC2)CC1` gave a GI50 of 1530 nM (SF-268).
Under “point of departure”, `Oc1cc(Cl)ccc1Oc1ccc(Cl)cc1Cl` is recorded as 28.8 µM (HepG2; protein level, measured: TNFAIP3 (A20); 1 h, distribution mode 2).
`CN1CCN(C2(CNC3CCN(c4cccc(-c5cc6cc(F)ccc6[nH]5)c4)CC3)CCC2)CC1` has a GI50 of 1660 nM (SF-539).
For `Cn1ncc(-c2nc(N[C@H]3CC[C@H](N)CC3)ncc2Cl)c1CC1CC1`, “RNA polymerase II CTD phosphorylation” read “decreased” (human AML cell lines; immunoblot, measured: Ser2 and Ser5; 100 nM, 24 h).
For `COc1ccc(C(=O)O[C@H]2CC[C@@]3(C)[C@@H]4CC[C@H]5[C@]6(O)C[C@H](O)[C@@]7(O)[C@@H](CN8C[C@@H](C)CC[C@H]8[C@@]7(C)O)[C@]6(O)C[C@@]53O[C@]24O)cc1OC`, “lowest effective concentration” read 0.01 µM (hiPSC glutamatergic neurons; mean firing rate, multi-electrode array).
`O=c1cc(-c2ccccc2)oc2c(O)c(O)ccc12`: “neurite branch number” 1.3 to 1.5 (SH-SY5Y Aβ-GFP cells, TRKB shRNA; 5 µM).
For `CCN(CC)c1ccc(C=NNC(=O)CSc2nc3ccccc3c(=O)n2Cc2ccc(S(N)(=O)=O)cc2)c(O)c1`, the CC50 was > 100000 nM (RPMI-8226; NCI five-dose screen).
For `COc1c(CCC[P+](c2ccccc2)(c2ccccc2)c2ccccc2)cc2c(c1OC)OCO2.[I-]`, the TGI was -4.86 log M (SF-539; SRB).
`Cc1c2ccncc2c(C)c2c1[nH]c1ccccc12` gave a selectivity index of 0.86 (KKU-M213; SRB; reference: normal over KKU-M213 IC50).
`COc1ccc2c(c1)[nH]c1c(C)nccc12` has a DNA methylation of 97.9% (DU-145; bisulfite pyrosequencing, measured: RASSF1A promoter CpG site 15; 10 µM, 16 h).
Under “fold change in IC50”, `CC1=C2C[C@H]3[C@@H](CC[C@@H]4C[C@H](NS(C)(=O)=O)CC[C@@]43C)[C@@H]2CC[C@@]2(C1)O[C@@H]1C[C@H](C)CN[C@H]1[C@H]2C` is recorded as 0.993 (HD-MB03; with: ribociclib 5 µM; reference: ribociclib over DMSO).
Under “G1 phase cells”, `Oc1ccc(C2(c3ccc(O)cc3)c3ccccc3-c3ccccc32)cc1` is recorded as 77.1 ± 3.96% (HepG2 spheroids; Hoechst flow cytometry; 0.01 µM, 96 h).
`O=c1cc(-c2ccc(O)cc2)oc2cc(O)cc(O)c12` has a neurite length of 27.4 to 31.1 µm (SH-SY5Y Aβ-GFP cells, TRKB shRNA; 5 µM).
`C[C@@H]1C[C@@H]([C@H](O)CC2CC(=O)NC(=O)C2)C(=O)[C@@H](C)C1` has an EC50 of 1580 nM (LDR; silenced CMV-GFP reporter derepression, qHTS).
For `CC[C@H](C)[C@H](NC(=O)[C@H](Cc1ccccc1)NC(=O)[C@H](CCC(=O)O)NC(=O)[C@H](CCCNC(=N)N)NC(=O)[C@H](C)NC(=O)[C@H](C)NC(=O)[C@H](CCC(N)=O)NC(=O)[C@H](CCC(=O)O)NC(=O)[C@H](CCC(=O)O)NC(=O)[C@H](CC(C)C)NC(=O)[C@H](Cc1ccc(O)cc1)NC(=O)[C@H](CO)NC(=O)[C@H](CO)NC(=O)[C@@H](NC(=O)[C@H](CC(=O)O)NC(=O)[C@H](CO)NC(=O)[C@@H](NC(=O)[C@H](Cc1ccccc1)NC(=O)[C@@H](NC(=O)CNC(=O)[C@H](CCC(=O)O)NC(=O)[C@H](C)NC(=O)CCc1c[nH]cn1)[C@@H](C)O)[C@@H](C)O)C(C)C)C(=O)N[C@@H](C)C(=O)N[C@@H](Cc1c[nH]c2ccccc12)C(=O)N[C@@H](CC(C)C)C(=O)N[C@H](C(=O)N[C@@H](CCCNC(=N)N)C(=O)NCC(=O)N[C@@H](CCCNC(=N)N)C(=O)N[C@@H](CCCCNC(=O)COCCOCCNC(=O)COCCOCCNC(=O)CC[C@H](NC(=O)CCCCCCCCCCCCCCCCC(=O)O)C(=O)O)C(=O)NCC(=O)NCC(=O)N[C@@H](CO)C(=O)N[C@@H](CCCCNc1c(NCCCCCN(O)C(=O)CCC(=O)NCCCCCN(O)C(=O)CCC(=O)NCCCCCN(O)C(C)=O)c(=O)c1=O)C(=O)O)C(C)C` [zirconium-89 labelled], the tissue uptake was 0.48 %ID/g (gamma counting; rat, skin of neck; intravenous, 3 nmol/kg, 4 h).
Under “relative colony forming efficiency”, `Cc1cnc2ccc3c(nc(N)n3C)c2n1` is recorded as 100 ± 6% (BALB/c 3T3; 0.1 µM; reference: solvent control).
The MyBP-C level of `C[C@]12CC[C@H](O)C[C@H]1CC[C@@H]1[C@@H]2C[C@@H](O)[C@]2(C)[C@@H](C3=CC(=O)OC3)CC[C@]12O` is reported as 15.1% (MYBPC3 iPSC cardiomyocytes; plate-normalised; concentration not given, 24 h, hit retest).
The GI50 of `Nc1ncc(-c2nc(N3CCOCC3)nc(N3CCOCC3)n2)c(C(F)F)n1` is reported as 135 nM (RPMI-7951; 72 h).
`COc1c(C)c2c(c(O)c1C/C=C(\C)CCC(=O)O)C(=O)OC2` gave an IC50 of 490 nM (LoVo; cell proliferation; colon cancer).
`COc1cc(CCC[P+](c2ccccc2)(c2ccccc2)c2ccccc2)c(OC)c2c1OCO2.[I-]` gave a TGI of -4.88 log M (SF-268; SRB).
For `COc1cc(Nc2ncc(F)c(Nc3ccc4c(n3)NC(=O)C(C)(C)O4)n2)cc(OC)c1OC`, the IC50 was > 10000 nM (5-hydroxytryptamine receptor 1A (HTR1A, Homo sapiens, UniProt P08908)).
For `Cc1cc(C(C)(C)c2ccc(O)c(C)c2)ccc1O`, “G2 phase cells” read 23 ± 4.31% (HepG2 spheroids; Hoechst flow cytometry; 10 µM, 96 h).
Under “late apoptotic cells”, `O=C1CCP(=S)(c2ccccc2)CC1` is recorded as 87.5% (SW480; Annexin V-FITC/PI flow cytometry; IC50, 72 h).
`O=C([O-])CN1CCN(CC(=O)[O-])CCN(CC(=O)NCC2CCC(C(=O)N[C@@H](Cc3ccc4ccccc4c3)C(=O)NCCCC[C@H](NC(=O)N[C@@H](CCC(=O)O)C(=O)O)C(=O)O)CC2)CCN(CC(=O)[O-])CC1.[177Lu+3]` (stereo partly shown) has an uptake of 4.78 ± 0.35% (22Rv1; 24 h; reference: added dose).
Under “APP protein decrease”, `CN1CC[C@@]2(C)c3cc(OC(=O)Nc4ccccc4)ccc3N(C)[C@@H]12` is recorded as ≤ 70% (mouse primary cortical neurons; up to 1 µM).
`C[C@]12CC[C@H]3[C@@H](CC[C@]4(O)C[C@@H](O)CC[C@]34C=O)[C@@]1(O)CC[C@@H]2C1=CC(=O)OC1` has a MyBP-C level of 14.6% (MYBPC3 iPSC cardiomyocytes; plate-normalised; concentration not given, 24 h, hit retest).
For `CC[C@H](C)[C@@H]1NC(=O)[C@@H]2CCCN2C(=O)[C@H](CC(C)C)NC(=O)[C@H](CC(C)C)NC(=O)CNC(=O)[C@@H](NC(=O)[C@@H](NC(=O)[C@H](CC(=O)O)NC(=O)CNC(=O)[C@@H](NC(=O)[C@H](C)NC(=O)CNC(=O)[C@H](CCCCN)NC(=O)[C@H](CC(C)C)NC(=O)[C@H](CC(C)C)NC(=O)[C@H](CCCCN)NC(=O)CNC(=O)[C@@H](NC(=O)[C@@H](N)CC(C)C)C(C)C)C(C)C)C(C)C)CSSC[C@@H](C(=O)O)NC1=O`, “log2 fold change” read -2.48 (RNA-seq, measured: Rhbdf2; mouse, traumatic brain injury model, frontal cortex and hippocampus; dose not given; reference: TBI alone).
For `Cc1nn(-c2nc3c(F)cc(F)cc3s2)c(O)c1C(c1ccc(C(F)(F)F)cc1)c1c(C)nn(-c2nc3c(F)cc(F)cc3s2)c1O`, the viability was 95.7% and 101% and 112% and 105% (RAW-ISG; CCK-8; 12.5 µM).
`Cc1n[nH]c(C)c1CSCc1ccccc1` gave a selectivity index of 2.4 (Jurkat; cytotoxicity; reference: IC50 HEK293 over IC50 Jurkat).
For `Cn1cncc1C1=CN(c2ncnc3[nH]cnc23)CCS1`, the CC50 was > 200000 nM (OVCAR-8; ovarian cancer).
For `COc1ccc(N2C(=O)N(c3c(C)cccc3Cl)Cc3cnc(Nc4ccc(C5CCN(C)CC5)cc4OC)nc32)nc1`, the inhibition was 2.46% (Dual specificity mitogen-activated protein kinase kinase 4 (MAP2K4, Homo sapiens, UniProt P45985); kinase activity; 0.5 µM).
`Nc1ncnc2c1ncn2[C@@H]1O[C@@H]2COP(=O)(O)O[C@H]3[C@@H](O)[C@H](n4cnc5c(=O)[nH]cnc54)O[C@@H]3COP(=O)(O)O[C@H]2[C@H]1O` gave a fold enrichment of 13.4 (HFF-1; RNA sequencing, measured: Reactome DDX58/IFIH1 negative regulators; upregulated pathways; reference: mock).
`C[C@H]1CN(c2n[nH]c3nc(N[C@H]4CC[C@H](NS(=O)(=O)CCC(F)(F)F)CC4)ncc23)CCO1` has a relative abundance of 1.06 (Tyrosine-protein kinase SYK (SYK, Homo sapiens, UniProt P43405); inhibitor, Kinobeads competition profiling; 0.032 µM; reference: vehicle).
`C/C=C(/C)C(=O)O[C@H]1C(C)=C2[C@H]([C@@H]1OC(=O)CCCCCCC)[C@@](C)(OC(C)=O)C[C@H](OC(=O)CCC)[C@@]1(O)[C@H]2OC(=O)[C@@]1(C)O`: “normalized enrichment score” 2.26 (HEK-293T; RNA-seq GSEA, measured: Hallmark protein secretion; 500 nM, 6 h; direction not given).
`CC(c1ccccc1)(c1ccc(O)cc1)c1ccc(O)cc1` — result for “G1 phase cells”: 67.3 ± 3.03% (HepG2 spheroids; Hoechst flow cytometry; 10 µM, 96 h).
The PI-positive cells of `Cn1nccc1Nc1nccc(-c2cc3c(s2)C(C)(C)N(CCN2CCOCC2)C3=O)n1` is reported as 4.33 count and 2.5 count and 4 count (HCT116; IncuCyte; concentration not given, 4 (unit not given)).
With `C[C@]12CC[C@H](O)C[C@H]1CC[C@@H]1[C@@H]2CC[C@]2(C)[C@@H](c3ccc(=O)oc3)CC[C@]12O` the mRNA level was 0.197 and 0.184 and 0.187 (MCF7; RT-qPCR, measured: NRIP1; 50 nM, 48 h, without estradiol, unit not given; reference: untreated).
For `O=c1c(O)c(-c2ccc(O)c(O)c2)oc2cc(O)cc(O)c12`, “neurite branch number” read 1.3 to 1.5 (SH-SY5Y Aβ-GFP cells, TRKB shRNA; 5 µM).
For `COc1ccc([C@@H](O)c2cc(-c3ncnc4cc(N5CCOCC5)ccc34)c(F)cc2Cl)nn1`, the clonogenic survival was 41 ± 3% (M12; 30 nM, with: radiation 2.5 Gy).
`CC1(C)CN(CCCCC(=O)N[C@H](Cc2ccc(O)c(I)c2)C(=O)N[C@H](Cc2ccccc2)C(=O)N[C@H](CCCCNC(=O)CCCCCCC(=O)NCCCC[C@H](NC(=O)N[C@@H](CCC(=O)O)C(=O)O)C(=O)O)C(=O)O)CC[N]2CC(C)(C)[S][Tc]2(=[O])[S]1` (stereo partly shown) [technetium-99m labelled] gave a surface-bound activity of 1.67 ± 0.24 %AD/mg protein (LNCaP; 25 nM, 1 h, 4 °C).
The EC10 of `CNC(=O)Oc1cc(C)c(SC)c(C)c1` is reported as 0.391 nM (SH-SY5Y; neurite outgrowth inhibition, phase-contrast imaging; freely dissolved concentration).
With `N.N.[Cl][Pt][Cl]` the inhibition was 100% (PEER; cell proliferation, CellTiter-Glo; 10 µM, 72 h).
`O=S(=O)(c1ccc(O)cc1)c1ccc(O)cc1` — result for “S phase cells”: 8.65 ± 0.71% (HepG2 spheroids; Hoechst flow cytometry; 1 µM, 24 h).
`Cc1nn(-c2nc3ccc(Cl)c(Cl)c3[nH]2)c(O)c1C1OC(=O)c2ccccc21` (stereo not shown) gave a viability of 24.9% and 21% and 19.6% and 22.2% and 19.8% (RAW-ISG; CCK-8; 100 µM).

For quick reference, copied from above:
For `Cc1cc(C(C)(C)c2ccc(O)c(C)c2)ccc1O`, “G2 phase cells” read 23 ± 4.31% (HepG2 spheroids; Hoechst flow cytometry; 10 µM, 96 h).
`CN1CCN(C2(CNC3CCN(c4cccc(-c5cc6cc(F)ccc6[nH]5)c4)CC3)CCC2)CC1` has a GI50 of 1660 nM (SF-539).
For `CCN(CC)c1ccc(C=NNC(=O)CSc2nc3ccccc3c(=O)n2Cc2ccc(S(N)(=O)=O)cc2)c(O)c1`, the CC50 was > 100000 nM (RPMI-8226; NCI five-dose screen).
For `COc1ccc([C@@H](O)c2cc(-c3ncnc4cc(N5CCOCC5)ccc34)c(F)cc2Cl)nn1`, the clonogenic survival was 41 ± 3% (M12; 30 nM, with: radiation 2.5 Gy).
